Published values gathered from unrelated publications.
UniProt P35579, sequence (whole entry, looked up): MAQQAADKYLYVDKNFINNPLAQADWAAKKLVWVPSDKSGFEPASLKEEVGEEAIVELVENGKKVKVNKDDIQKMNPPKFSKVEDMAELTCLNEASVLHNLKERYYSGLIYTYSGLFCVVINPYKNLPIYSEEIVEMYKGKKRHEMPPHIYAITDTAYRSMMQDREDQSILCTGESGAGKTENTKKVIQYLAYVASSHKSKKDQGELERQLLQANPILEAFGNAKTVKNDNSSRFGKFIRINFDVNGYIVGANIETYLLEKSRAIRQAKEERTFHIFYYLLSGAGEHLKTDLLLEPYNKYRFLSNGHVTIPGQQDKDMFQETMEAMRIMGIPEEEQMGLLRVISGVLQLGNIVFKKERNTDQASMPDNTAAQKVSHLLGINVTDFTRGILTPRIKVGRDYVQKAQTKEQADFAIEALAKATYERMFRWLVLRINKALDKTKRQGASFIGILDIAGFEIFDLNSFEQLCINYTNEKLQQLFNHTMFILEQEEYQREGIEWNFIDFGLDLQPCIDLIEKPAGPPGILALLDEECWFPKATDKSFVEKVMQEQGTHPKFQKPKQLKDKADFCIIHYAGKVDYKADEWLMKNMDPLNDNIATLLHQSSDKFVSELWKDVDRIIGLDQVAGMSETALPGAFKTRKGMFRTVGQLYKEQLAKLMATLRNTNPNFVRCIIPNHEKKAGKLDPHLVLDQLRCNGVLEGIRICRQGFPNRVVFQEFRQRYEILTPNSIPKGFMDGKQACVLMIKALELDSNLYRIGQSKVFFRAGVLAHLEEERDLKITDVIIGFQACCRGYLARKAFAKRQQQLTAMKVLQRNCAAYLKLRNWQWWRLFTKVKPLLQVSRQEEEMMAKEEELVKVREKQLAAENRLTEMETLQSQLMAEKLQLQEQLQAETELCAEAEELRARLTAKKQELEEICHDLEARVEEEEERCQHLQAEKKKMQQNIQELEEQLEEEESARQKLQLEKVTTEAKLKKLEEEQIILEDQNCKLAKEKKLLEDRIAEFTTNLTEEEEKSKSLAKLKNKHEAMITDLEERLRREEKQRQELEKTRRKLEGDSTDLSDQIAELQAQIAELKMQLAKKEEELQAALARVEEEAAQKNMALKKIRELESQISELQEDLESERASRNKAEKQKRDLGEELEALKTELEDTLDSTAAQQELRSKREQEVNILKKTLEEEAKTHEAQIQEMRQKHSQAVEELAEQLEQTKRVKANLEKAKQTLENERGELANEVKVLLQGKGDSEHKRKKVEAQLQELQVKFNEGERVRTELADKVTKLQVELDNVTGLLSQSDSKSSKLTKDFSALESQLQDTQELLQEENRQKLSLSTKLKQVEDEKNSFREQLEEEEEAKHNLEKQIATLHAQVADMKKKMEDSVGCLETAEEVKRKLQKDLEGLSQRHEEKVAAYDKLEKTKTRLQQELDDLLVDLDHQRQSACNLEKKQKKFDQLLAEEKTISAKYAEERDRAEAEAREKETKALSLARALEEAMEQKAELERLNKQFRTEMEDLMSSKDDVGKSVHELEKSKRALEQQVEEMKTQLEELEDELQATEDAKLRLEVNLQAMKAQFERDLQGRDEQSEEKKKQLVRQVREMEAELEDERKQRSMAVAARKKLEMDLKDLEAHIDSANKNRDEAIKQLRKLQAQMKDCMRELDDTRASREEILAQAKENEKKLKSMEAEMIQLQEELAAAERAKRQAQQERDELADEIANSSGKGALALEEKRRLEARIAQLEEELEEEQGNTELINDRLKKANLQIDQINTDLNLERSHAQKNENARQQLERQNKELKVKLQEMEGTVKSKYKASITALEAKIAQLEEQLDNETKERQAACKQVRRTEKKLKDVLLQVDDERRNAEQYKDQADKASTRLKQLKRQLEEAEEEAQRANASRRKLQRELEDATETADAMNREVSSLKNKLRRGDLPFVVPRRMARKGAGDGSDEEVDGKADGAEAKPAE

Compound = O=C(NCC1(c2nc(-c3ccccc3)cs2)CCOCC1)c1cccc(-c2noc(C(F)(F)F)n2)c1; target or system = human coronavirus OC43; test = virus-induced cell killing; test system = MRC-5; setting = screen; endpoint = maximum inhibition; result = 25.7%
Compound = CC1(C)SC2C(NC(=O)C(NC(=O)C3=C(O)C4(CC4)NC3=O)c3ccccc3)C(=O)N2C1C(=O)O (stereo not shown); target or system = Escherichia coli; test = broth microdilution; test system = Keio mutant JW2142-1; endpoint = MIC; result = 50 µg/mL
Compound = N=C(N)NCCC[C@H](NC(=O)[C@H](Cc1c[nH]c2ccccc12)NC(=O)[C@H](CCCNC(=N)N)NC(=O)[C@H](Cc1c[nH]c2ccccc12)NC(=O)[C@H](Cc1c[nH]c2ccccc12)NC(=O)[C@H](Cc1c[nH]c2ccccc12)NC(=O)[C@H](CCCNC(=N)N)NC(=O)[C@H](Cc1c[nH]c2ccccc12)NC(=O)[C@H](CCCNC(=N)N)NC(=O)CN)C(N)=O; target or system = Candida albicans; test = broth microdilution; test system = CGMCC 2.209, RPMI 1640-MOPS; setting = 48 h, 30 °C, added: FeCl3 4 µM; endpoint = MIC; result = 4 µM
Compound = CC1(C)SC2C(NC(=O)C(NC(=O)C3=C(O)C(Cc4ccco4)NC3=O)c3ccccc3)C(=O)N2C1C(=O)O (stereo not shown); target or system = Escherichia coli; test = broth microdilution; test system = Keio mutant JW0146-2; setting = 18 h, ferric hydroxamate uptake gene; endpoint = MIC; result = 12.5 µg/mL
Compound = CC[C@H](C)[C@H](NC(=O)[C@@H]1CCCN1C(=O)[C@H](CC(N)=O)NC(=O)[C@H](CC(N)=O)NC(=O)[C@H](CC(C)C)NC(=O)CNC(=O)[C@@H]1CCCN1C(=O)[C@H](CC(C)C)NC(=O)[C@H](CCCNC(=N)N)NC(=O)[C@@H]1CCCN1C(=O)[C@H](CCCNC(=N)N)NC(=O)CNC(=O)[C@@H]1CCCN1C(=O)[C@@H]1CCCN1C(=O)[C@H](CCCNC(=N)N)NC(=O)CNC(=O)[C@H](CCCNC(=N)N)NC(=O)[C@H](CO)NC(=O)[C@H](CCCNC(=N)N)NC(=O)CNC(=O)[C@H](CCCNC(=N)N)NC(=O)[C@H](CO)NC(=O)[C@H](CCCNC(=N)N)NC(=O)CNC(=O)[C@H](C)NC(=O)[C@H](CCCNC(=N)N)NC(=O)[C@@H](N)CCCNC(=N)N)C(=O)N[C@@H](C)C(=O)NCC(=O)N[C@H](C(=O)N1CCC[C@H]1C(=O)NCC(=O)N[C@@H](CCCNC(=N)N)C(=O)N[C@@H](CCCCN)C(=O)O)[C@@H](C)CC; target or system = Gram-positive and Gram-negative bacteria; setting = range over ten strains; endpoint = MIC; result = > 50 µM
Compound = CC1(C)SC2C(NC(=O)C(NC(=O)C3=C(O)CNC3=O)c3ccccc3)C(=O)N2C1C(=O)O (stereo not shown); target or system = Escherichia coli; test = broth microdilution; test system = Keio mutant JW2142-1; endpoint = MIC; result = 50 µg/mL
Compound = C[C@H]1CN(c2n[nH]c3nc(N[C@H]4CC[C@H](NS(=O)(=O)CCC(F)(F)F)CC4)ncc23)CCO1; target or system = Myosin-9 (MYH9, Homo sapiens, UniProt P35579); test = inhibitor, Kinobeads competition profiling; setting = 0.8 µM; how to read = relative to: vehicle; endpoint = relative abundance; result = 1.11
Compound = CC[C@H](C)[C@H](NC(=O)CN)C(=O)NCC(=O)N[C@@H](C)C(=O)N[C@H](C(=O)N[C@@H](CC(C)C)C(=O)N[C@@H](CCCCN)C(=O)N[C@H](C(=O)N[C@@H](CC(C)C)C(=O)N[C@H](C(=O)N[C@H](C(=O)NCC(=O)N[C@@H](CC(C)C)C(=O)N1CCC[C@H]1C(=O)N[C@@H](C)C(=O)N[C@@H](CC(C)C)C(=O)N[C@H](C(=O)N[C@@H](CO)C(=O)N[C@@H](Cc1c[nH]c2ccccc12)C(=O)N[C@H](C(=O)N[C@@H](CCCCN)C(=O)N[C@@H](CCCNC(=N)N)C(=O)N[C@@H](CCCCN)C(=O)N[C@@H](CCCNC(=N)N)C(=O)N[C@@H](CCC(N)=O)C(=O)N[C@@H](CCC(N)=O)C(N)=O)[C@@H](C)CC)[C@@H](C)CC)[C@@H](C)O)[C@@H](C)O)C(C)C)C(C)C; target or system = Lacticaseibacillus rhamnosus; test system = 1.038, probiotic strain; setting = 24 h, 37 °C, tested up to 128 µM; endpoint = MIC; result = 128 µM
Compound = N=C(N)NCCC[C@H](NC(=O)CCCCCNC(=O)[C@H](CCCNC(=N)N)NC(=O)[C@H](CCCNC(=N)N)NC(=O)CCCCCNC(=O)[C@H](CCCNC(=N)N)NC(=O)[C@H](CCCNC(=N)N)NC(=O)CCCCCNC(=O)[C@H](CCCNC(=N)N)NC(=O)[C@H](CCCNC(=N)N)NC(=O)CCCCCNC(=O)[C@@H](N)CCCNC(=N)N)C(=O)NCCCCCC(=O)NCCC(=O)O; target or system = Escherichia coli; test system = ATCC 25922; setting = 1 h, 37 °C, after 50% fetal bovine serum; endpoint = MIC; result = > 192 µM
Compound = CC1(C)SC2C(NC(=O)C(NC(=O)C3=C(O)C(Cc4ccsc4)NC3=O)c3ccccc3)C(=O)N2C1C(=O)O (stereo not shown); target or system = Escherichia coli; test = broth microdilution; test system = Keio mutant JW0587-1; setting = 18 h, enterobactin-related gene; endpoint = MIC; result = 25 µg/mL
Compound = C[C@H](NC(=O)[C@H](CCCNC(=N)N)NC(=O)[C@H](Cc1c[nH]c2ccccc12)NC(=O)[C@H](CCCNC(=N)N)NC(=O)[C@H](Cc1c[nH]c2ccccc12)NC(=O)[C@H](Cc1c[nH]c2ccccc12)NC(=O)[C@H](Cc1c[nH]c2ccccc12)NC(=O)[C@H](CCCNC(=N)N)NC(=O)[C@H](Cc1c[nH]c2ccccc12)NC(=O)[C@@H](N)CCCNC(=N)N)C(N)=O; target or system = Candida albicans; test = broth microdilution; test system = CGMCC 2.209, RPMI 1640-MOPS; setting = 48 h, 30 °C, added: MgCl2 1 mM; endpoint = MIC; result = 8 µM
Compound = CC[C@H](C)[C@H](NC(=O)[C@H](CCCCN)NC(=O)[C@H](CCCCN)NC(=O)[C@H](Cc1ccccc1)NC(=O)[C@@H](NC(=O)[C@@H](NC(=O)[C@H](CCCNC(=N)N)NC(=O)[C@H](Cc1ccccc1)NC(=O)[C@@H](NC(=O)[C@H](CCCCN)NC(=O)[C@H](CCCCN)NC(=O)[C@@H](N)CCSC)[C@@H](C)CC)C(C)C)[C@@H](C)CC)C(=O)N[C@@H](CC(C)C)C(=O)N[C@@H](CCCCN)C(=O)N[C@@H](CCCNC(=N)N)C(=O)N[C@@H](CC(C)C)C(=O)N[C@H](C(=O)N[C@H](C(=O)O)C(C)C)[C@@H](C)CC; target or system = Staphylococcus aureus; test = broth microdilution; test system = ATCC 25923; setting = 10% fetal bovine serum; endpoint = MIC; result = 8 µg/mL
Compound = Fc1ccc(COc2cccc(CNCc3ccccc3)c2)cc1; target or system = nontuberculous mycobacteria; setting = range over strains; endpoint = MIC; result = 7.8 to 31.3 µM
Compound = CC[C@H](C)[C@H](NC(=O)[C@H](CC(C)C)NC(=O)[C@H](CCCCN)NC(=O)[C@@H](NC(=O)[C@H](C)NC(=O)[C@H](CCC(=O)O)NC(=O)[C@H](Cc1c[nH]cn1)NC(=O)[C@@H](NC(=O)[C@H](CCCCN)NC(=O)[C@H](CCC(N)=O)NC(=O)[C@H](Cc1ccccc1)NC(=O)[C@@H](NC(=O)[C@H](CCCCN)NC(=O)[C@H](CCCCN)NC(=O)[C@H](CC(C)C)NC(=O)[C@H](C)N)C(C)C)[C@@H](C)CC)[C@@H](C)CC)C(N)=O; target or system = Gram-positive and Gram-negative bacteria; setting = geometric mean; endpoint = MIC; result = 7.34 µM
Compound = N=C(N)NCCC[C@H](NC(=O)CN)C(=O)N[C@@H](Cc1c[nH]c2ccccc12)C(=O)N[C@@H](CCCNC(=N)N)C(=O)N[C@@H](Cc1c[nH]c2ccccc12)C(=O)N[C@@H](Cc1c[nH]c2ccccc12)C(=O)N[C@@H](Cc1c[nH]c2ccccc12)C(=O)N[C@@H](CCCNC(=N)N)C(=O)N[C@@H](Cc1c[nH]c2ccccc12)C(=O)N[C@@H](CCCNC(=N)N)C(=O)N[C@@H](Cc1ccccc1)C(N)=O; target or system = Candida albicans; test = broth microdilution; test system = CGMCC 2.209, RPMI 1640-MOPS; setting = 48 h, 30 °C; endpoint = MIC; result = 8 µM
Compound = CC(C)CC1NC(=O)C(C(=O)NC(C(=O)NC2C(=O)N3C2SC(C)(C)C3C(=O)O)c2ccccc2)=C1O (stereo not shown); target or system = Escherichia coli; test = broth microdilution; test system = ATCC 35218, low-level TEM-1; setting = no clavulanic acid; endpoint = MIC; result = > 200 µg/mL
Compound = C[C@H](NC(=O)[C@H](CCCNC(=N)N)NC(=O)[C@H](Cc1c[nH]c2ccccc12)NC(=O)[C@H](CCCNC(=N)N)NC(=O)[C@H](Cc1c[nH]c2ccccc12)NC(=O)[C@H](Cc1c[nH]c2ccccc12)NC(=O)[C@H](Cc1c[nH]c2ccccc12)NC(=O)[C@H](CCCNC(=N)N)NC(=O)[C@H](Cc1c[nH]c2ccccc12)NC(=O)[C@H](CCCNC(=N)N)NC(=O)CN)C(N)=O; target or system = Candida albicans; test = broth microdilution; test system = SP3903, RPMI 1640-MOPS; setting = 48 h, 30 °C; endpoint = MIC; result = 8 µM
Compound = Oc1c(Br)cc(Br)cc1-c1[nH]c(Br)c(Br)c1Br; target or system = Listeria ivanovii; test system = BAA-139; endpoint = MIC; result = 0.13 µM
Compound = Cn1cc(C2=C(c3ccc(Cl)cc3Cl)C(=O)NC2=O)c2ccccc21; target or system = human coronavirus OC43; test = virus-induced cell killing; test system = MRC-5; setting = screen; endpoint = maximum inhibition; result = 10.5%
Compound = CC(C)C[C@@H](NC(=O)[C@H](C)NC(=O)CNC(=O)[C@@H](NC=O)C(C)C)C(=O)N[C@@H](C)C(=O)N[C@@H](C(=O)N[C@H](C(=O)N[C@@H](C(=O)N[C@@H](Cc1c[nH]c2ccccc12)C(=O)N[C@H](CC(C)C)C(=O)N[C@@H](Cc1ccc2[nH]ccc2c1)C(=O)N[C@H](CC(C)C)C(=O)N[C@@H](Cc1c[nH]c2ccccc12)C(=O)N[C@@H](C(=O)N[C@@H](Cc1c[nH]c2ccccc12)C(=O)NCCO)C(C)C)[C@H](C)O)C(C)C)C(C)C; target or system = Streptococcus pyogenes; test = broth microdilution; test system = SSI-9; endpoint = MIC; result = 0.033 µM
Compound = CC(C)C[C@H](NC(=O)[C@H](CCCNC(=N)N)NC(=O)[C@H](Cc1c[nH]c2ccccc12)NC(=O)[C@H](CCCNC(=N)N)NC(=O)[C@H](Cc1c[nH]c2ccccc12)NC(=O)[C@H](Cc1c[nH]c2ccccc12)NC(=O)[C@H](Cc1c[nH]c2ccccc12)NC(=O)[C@H](CCCNC(=N)N)NC(=O)[C@H](Cc1c[nH]c2ccccc12)NC(=O)[C@H](CCCNC(=N)N)NC(=O)CN)C(N)=O; target or system = Candida albicans; test = broth microdilution; test system = CGMCC 2.209, RPMI 1640-MOPS; setting = 48 h, 30 °C, added: ZnCl2 8 µM; endpoint = MIC; result = 32 µM
Compound = CC1(C)SC2C(NC(=O)C(NC(=O)C3=C(O)C(Cc4ccccc4)NC3=O)c3ccccc3)C(=O)N2C1C(=O)O (stereo not shown); target or system = Escherichia coli; test = broth microdilution; test system = isolate IU 356 A, KPC-3, VIM-1, TEM; setting = no clavulanic acid; endpoint = MIC; result = > 200 µg/mL
Compound = N=C(N)c1ccc(OCCCCCOc2ccc(C(=N)N)cc2)cc1; target or system = Escherichia coli; test system = mcr-1; setting = 20 h, in combination, checkerboard, added: rifampicin; endpoint = MIC; result = 50 µg/mL
Compound = CC1(C)S[C@@H]2[C@H](NC(=O)[C@H](N)c3ccccc3)C(=O)N2[C@H]1C(=O)O; target or system = Escherichia coli; test = broth microdilution; test system = ATCC 35218, low-level TEM-1; setting = no clavulanic acid; endpoint = MIC; result = > 200 µg/mL
Compound = N=C(N)NCCC[C@H](NC(=O)CN)C(=O)N[C@@H](Cc1c[nH]c2ccccc12)C(=O)N[C@@H](CCCNC(=N)N)C(=O)N[C@@H](Cc1c[nH]c2ccccc12)C(=O)N[C@@H](Cc1c[nH]c2ccccc12)C(=O)N[C@@H](Cc1c[nH]c2ccccc12)C(=O)N[C@@H](CCCNC(=N)N)C(=O)N[C@@H](Cc1c[nH]c2ccccc12)C(=O)N[C@@H](CCCNC(=N)N)C(=O)N[C@@H](Cc1c[nH]c2ccccc12)C(N)=O; target or system = Candida albicans; test = broth microdilution; test system = CGMCC 2.209, RPMI 1640-MOPS; setting = 48 h, 30 °C, added: ZnCl2 8 µM; endpoint = MIC; result = 4 µM

A few entries again:
Compound = Oc1c(Br)cc(Br)cc1-c1[nH]c(Br)c(Br)c1Br; target or system = Listeria ivanovii; test system = BAA-139; endpoint = MIC; result = 0.13 µM
Compound = N=C(N)NCCC[C@H](NC(=O)CN)C(=O)N[C@@H](Cc1c[nH]c2ccccc12)C(=O)N[C@@H](CCCNC(=N)N)C(=O)N[C@@H](Cc1c[nH]c2ccccc12)C(=O)N[C@@H](Cc1c[nH]c2ccccc12)C(=O)N[C@@H](Cc1c[nH]c2ccccc12)C(=O)N[C@@H](CCCNC(=N)N)C(=O)N[C@@H](Cc1c[nH]c2ccccc12)C(=O)N[C@@H](CCCNC(=N)N)C(=O)N[C@@H](Cc1c[nH]c2ccccc12)C(N)=O; target or system = Candida albicans; test = broth microdilution; test system = CGMCC 2.209, RPMI 1640-MOPS; setting = 48 h, 30 °C, added: ZnCl2 8 µM; endpoint = MIC; result = 4 µM
